Published values pooled from the literature.
± gives the spread as reported.
Cell line: HeLa

| Compound | assay | setting | IC50 |
| --- | --- | --- | --- |
| COc1cc(/C=C/C(=O)NCCCCCCNC2=C3C[C@@H](C)C[C@H](OC)[C@H](O)[C@@H](C)/C=C(\C)[C@H](OC(N)=O)[C@@H](OC)/C=C\C=C(/C)C(=O)NC(=CC2=O)C3=O)ccc1O | cell growth or viability, MTT | 72 h | 0.341 µM |
| O=C(CCCc1ccc2c(c1)CCCC2)N[C@@H]1O[C@H](CO)[C@@H](O)[C@H](O)[C@H]1O | cell growth or viability | 96 h | > 250 µM |
| Nc1ccn(CC(=O)N[C@@H](Cc2ccccc2)C(=O)N[C@@H](Cc2ccccc2)C(=O)N[C@@H](Cc2ccc(O)cc2)C(=O)O)c(=O)n1 | – | – | > 500 µM |
| S=c1n(-c2ccccc2)c2c3ccccc3nc3[n+]2[n]1[Ir-3]12([S]3)([c]3ccccc3-c3cccc[n+]31)[c]1ccccc1-c1cccc[n+]12 | cell viability, MTT | dark | > 50 µM |
| Cc1cc(C#N)cc(C)c1Oc1cc(Nc2ccc(C#N)cc2)nc2cnccc12 | – | 48 h | > 128 µM |
| COc1ccc(CNC[C@](O)(COCc2ccccc2)[C@@H]2CC[C@@H](C)C[C@H]2OCc2ccccc2)cc1 | cell growth or viability, MTT | 72 h | 2.4 µM |
| O=[N+]([O-])[O-].[NH3+][Pt-2]1([NH3+])[O]C(C(F)(F)F)=CC(c2ccccc2)=[O+]1 (stereo not drawn) | cell growth or viability, MTT | – | 3 µM |
| S=c1n(-c2ccccc2)c2c3ccccc3nc3[n+]2[n]1[Ir-3]12([S]3)([c]3ccc4ccccc4c3-c3sc4ccccc4[n+]31)[c]1ccc3ccccc3c1-c1sc3ccccc3[n+]12 | cell viability, MTT | dark | > 25 µM |
| C[C@]12CC/C(=N\OCCN3CCOCC3)C=C1CCC1C2CC[C@]2(C)/C(=C/c3ccccn3)CCC12 (stereo partly drawn) | cell growth or viability, MTT | 72 h | 44.1 µM |
| C[C@@H]1CC[C@@H]([C@@](C)(O)Cn2ccnc2)[C@H](OCc2ccccc2)C1 | cell growth or viability, MTT | 72 h | 23.2 µM |
| CCC1=C(CC)C2=[N+]3C1=Cc1c(CC)c(CC)c4[n]1[Ir-3]31([C]#[N+]c3ccc(OC)cc3)([C]#[N+]c3ccc(OC)cc3)[n]3c(c(CC)c(CC)c3=CC3=[N+]1C(=C4)C(CC)=C3CC)=C2.F[B-](F)(F)F | cell growth or viability, MTT | 72 h | 7.9 µM |
| COC(=O)CNc1cc(C[S+]([O-])c2ccc3cc(Br)ccc3c2)ccc1OC (stereo not drawn) | cell growth or viability, MTS | 48 h | 0.116 µM |
| C#CCN(CC(=O)O[C@H]1[C@H](C)O[C@@H](O[C@H]2[C@H](N(C)C)[C@@H](O)[C@H](O[C@H]3[C@@H](CC=O)C[C@@H](C)[C@@H](O[C@H]4CC[C@H](N(C)C)[C@@H](C)O4)/C=C/C=C/C[C@@H](C)OC(=O)C[C@@H](O)[C@@H]3OC)O[C@@H]2C)C[C@@]1(C)O)C(=O)c1ccc(C(C)(C)C)cc1 | cell growth or viability, CCK-8 | 72 h | 1.76 µM |
| CCCCN(CCCC)CC(O)COc1c2ccoc2c(OC)c2oc(CC)cc(=O)c12 (stereo not drawn) | cell growth or viability, MTT | 72 h | 22.4 µM |
| COc1ccc(NC(=O)O[C@H]2[C@H](C)O[C@@H](O[C@H]3[C@H](N(C)C)[C@@H](O)[C@H](O[C@H]4[C@@H](CC=O)C[C@@H](C)[C@@H](O[C@H]5CC[C@H](N(C)C)[C@@H](C)O5)/C=C/C=C/C[C@@H](C)OC(=O)C[C@@H](O)[C@@H]4OC)O[C@@H]3C)C[C@@]2(C)O)cc1 | cell growth or viability, CCK-8 | 72 h | > 50 µM |
| C[C@@H]1CC[C@@H]([C@@](O)(CNCc2cccc(F)c2)COCc2ccccc2)[C@H](OCc2ccccc2)C1 | cell growth or viability, MTT | 72 h | 2.3 µM |
| COc1ccc(C(C)(O)C(C)(C)C(=O)O)cc1 (stereo not drawn) | cell growth or viability | 72 h | 126 µM |
| COc1ccc2c(c1)OCc1c-2oc2cc3c(cc12)OCO3 | cell growth or viability, MTT | 72 h | 30.2 µM |
| Cc1cc(O)cc2c1O[C@](C)(CCC[C@H](C)CCC[C@H](C)CCCC(C)C)CC2 | cell growth or viability, MTT | – | 4.01 µM |
| NC(=O)c1ccc(-c2ccccc2Cl)c2c3c([nH]c12)CCC(N)C3 (stereo not drawn) | cell growth or viability | – | 0.015 µM |
| CCCCCCCC[P+](c1ccccc1)(c1ccccc1)c1ccccc1 | cell growth or viability, resazurin | 72 h | 0.34 µM |
| CC(C)c1ccc(/C=C/C(=O)NC(=O)N[C@@H]2O[C@H](CO)[C@@H](O)[C@H](O)[C@H]2O)cc1 | cell growth or viability | 96 h | 45 µM |
| O=C1c2ccc(O)cc2OC1(O)Cc1ccc(O)c(O)c1 (stereo not drawn) | cell growth or viability, MTT | 72 h | > 400 µM |
| c1ccc(Cc2nnnn2Cc2ccc(-c3ccc(OCCN4CCOCC4)cc3)cn2)cc1 | cell growth or viability, CCK-8 | 48 h | > 4 µM |
| O=C(/C=C/c1ccc2c(c1)C(=O)N(CCCc1ccccc1)CC2)NO | cell growth or viability, SRB | 72 h | 2.53 µM |
| S=C(N/N=C/c1ccc(-c2ccccc2)s1)Nc1ccccc1 | cell growth or viability | – | 43 µM |

| Compound | assay | setting | IC50 |
| --- | --- | --- | --- |
| CC[C@@H]1C(=O)N(C)c2cnc(Nc3ccc(C(=O)NCCCC[C@H](NC(C)=O)C(N)=O)cc3OC)nc2N1C1CCCC1 | cell growth or viability, MTT | 48 h | 0.6 µM |
| Cc1cn([C@@H]2O[C@H](CSSC[C@H]3O[C@@H](n4cc(C)c(=O)[nH]c4=O)[C@H](O)[C@@H](F)[C@@H]3O)[C@@H](O)[C@H](F)[C@H]2O)c(=O)[nH]c1=O | cell growth or viability | – | > 500 µM |
| CCCCCC(=O)O[C@H]1[C@H](C)O[C@@H](O[C@H]2[C@H](N(C)C)[C@@H](O)[C@H](O[C@H]3[C@@H](CC=O)C[C@@H](C)[C@@H](O[C@H]4CC[C@H](N(C)C)[C@@H](C)O4)/C=C/C=C/C[C@@H](C)OC(=O)C[C@@H](O)[C@@H]3OC)O[C@@H]2C)C[C@@]1(C)O | cell growth or viability, CCK-8 | 72 h | 23.7 µM |
| N#Cc1c(-c2ccc(Cl)cc2)cc(-c2cccc3ccccc23)nc1NNC(=O)Cc1ccccc1 | cell growth or viability, MTT | 72 h | 0.127 µM |
| COc1ccccc1/C=N/NC(=O)c1cc2cc(Nc3nccc(-c4cccnc4)n3)ccc2[nH]1 | cell growth or viability, MTT | 48 h | 9.75 µM |
| COc1cc(CN2CCN(c3cccc(Cl)c3)CC2)c2cc3[n+](cc2c1O)CCc1cc2c(cc1-3)OCO2 | cell growth or viability, SRB | 48 h | 3.98 µg/mL |
| O=[N+]([O-])c1ccc(NC2=N[N+](=Cc3cccs3)[Pt-]([Cl])([Cl])[S]2)cc1 | cell growth or viability | – | 46 µM |
| CCCCc1ccc(C(=O)O[C@@H]2CC(=O)O[C@H](C)C/C=C/C=C/[C@H](O[C@H]3CC[C@H](N(C)C)[C@@H](C)O3)[C@H](C)C[C@H](CC=O)[C@H](O[C@@H]3O[C@H](C)[C@@H](O[C@H]4C[C@@](C)(O)[C@@H](O)[C@H](C)O4)[C@H](N(C)C)[C@H]3O)[C@H]2OC)cc1 | cell growth or viability, CCK-8 | 72 h | 1 µM |
| O=C(CCCCCCNC(=O)c1cc(C(=O)c2ccccc2)cn1Cc1ccc(F)cc1)NO | cell growth or viability, resazurin | 72 h | 2 µM |
| O=C1/C(=C(\O)CCc2ccccc2)C(=O)[C@@]2(C(=O)OCc3ccccc3)CS[C@H](c3ccccc3)N12 | cell growth or viability, resazurin | – | 31.3 µg/mL |
| C=C1C(=O)O[C@@H]2/C=C(\C)CC/C=C(/C(=O)OC)[C@H](OC(C)=O)[C@@H](OC(=O)/C(C)=C\C)[C@@H]12 | cell growth or viability | 48 h | 5.51 µM |
| COc1cc(CN2CCN(c3ccccc3[N+](=O)[O-])CC2)c2cc3[n+](cc2c1O)CCc1cc2c(cc1-3)OCO2 | cell growth or viability, SRB | 48 h | 5.97 µg/mL |
| Nc1ccc(CNC(=O)Cc2ccc(-c3ccc(OCCN4CCOCC4)cc3)cn2)cc1 | cell growth or viability, CCK-8 | 48 h | 0.63 µM |
| CC[P+](c1ccccc1)(c1ccccc1)c1ccccc1 | cell growth or viability, resazurin | 72 h | 16.1 µM |
| O=C(Cc1ccc(-c2ccc(OCCN3CCOCC3)cc2)cn1)NCc1ccc(C(F)(F)F)cc1 | cell growth or viability, CCK-8 | 48 h | 0.27 µM |
| CC(=O)[C@@H]1CCCN1C(=O)[C@@H]1CCCN1C(=O)[C@H](Cc1ccccc1)NC(=O)OC(C)(C)C | cell growth or viability, SRB | – | 6 µM |
| CNc1ccc(CNC(=O)Cc2ccc(-c3ccc(OCCN4CCOCC4)cc3)cn2)cc1 | cell growth or viability, CCK-8 | 48 h | 0.15 µM |
| FC(F)(F)c1ccc(CNc2nc(NCc3ccccc3)c3ccccc3n2)cc1 | ODD-Luc degradation | p97-independent substrate | 15 ± 3 µM |
| Cc1cc(C=O)cc(C)c1Oc1cc(Nc2ccc(C#N)cc2)nc2ccncc12 | – | 48 h | 31.6 ± 1.9 µM |
| CC(=O)O[C@H]1C[C@H](O[C@H]2[C@@H](O)C[C@H](O[C@H]3[C@@H](O)C[C@H](O[C@H]4CC[C@@]5(C)[C@H](CC[C@@H]6[C@@H]5CC[C@]5(C)[C@@H](C7=CC(=O)OC7)CC[C@]65O)C4)O[C@@H]3C)O[C@@H]2C)O[C@H](C)[C@H]1O[C@@H]1O[C@H](CO)[C@@H](O[C@@H]2O[C@H](CO)[C@@H](O)[C@H](O)[C@H]2O)[C@H](O)[C@H]1O | cell growth or viability, MTT | 48 h | 0.07 µM |
| CCc1ccc([C@H](C)CC(=O)NC(=O)N[C@@H]2O[C@H](COC(C)=O)[C@@H](OC(C)=O)[C@H](OC(C)=O)[C@H]2OC(C)=O)cc1 | cell growth or viability | 96 h | 88 µM |
| CC(C)(C)c1cc2c(O)c(c1)Cc1cc(C(C)(C)C)cc(c1OCC(=O)NCc1ccccn1)Cc1cc(C(C)(C)C)cc(c1O)Cc1cc(C(C)(C)C)cc(c1OCC(=O)NCc1ccccn1)COC2 | cell growth or viability, MTT | 72 h | 10.9 µM |
| O=C(Nc1ccc(-c2ccc(OCCN3CCOCC3)cc2)cn1)NS(=O)(=O)c1ccccc1 | cell growth or viability, CCK-8 | 48 h | > 4 µM |
| O=C(O[C@@H]1Cc2c(O)cc(O)cc2O[C@@H]1c1cc(O)c(O)c(O)c1)c1cc(O)c(O)c(O)c1 | cell growth or viability, CCK-8 | 24 h | 61.6 µM |
| CC[C@H](C)[C@H](NC(=O)[C@H]([C@@H](C)CC)N(C)C(C)=O)C(=O)N[C@H](C(=O)N[C@@H](CC(C)C)C(=O)[C@@]1(C)CO1)[C@@H](C)O | cell growth or viability, resazurin | 48 h | 0.004 µM |
